Published values collected from several papers.
Lines come from different studies, so protocols differ.

SMILES | cell line | test | conditions | IC50 [µM]
CC[C@H](C)[C@H](NC(=O)[C@H](Cc1ccc(O)cc1)NC(=O)[C@H](CC(=O)O)NC(=O)[C@H](CCCCN)NC(=O)CNC(=O)[C@H](CC(=O)O)NC(=O)[C@H](CCC(N)=O)NC(=O)[C@@H](N)CCC(N)=O)C(=O)N[C@H](C(=O)N[C@@H](CC(C)C)C(=O)N1CCC[C@H]1C(=O)N[C@H](C(=O)N[C@@H](CO)C(=O)N[C@@H](CCC(=O)O)C(=O)N[C@H](C(=O)N[C@@H](CCCCNC(=O)CNC(=O)[C@H](CCCCN)NC(=O)[C@H](CCCNC(=N)N)NC(=O)[C@H](Cc1ccccc1)NC(=O)[C@H](CCCNC(=N)N)NC(=O)[C@H](CCCNC(=N)N)NC(=O)[C@H](CCCNC(=N)N)NC(=O)[C@H](CO)NC(=O)[C@H](Cc1ccc(O)cc1)NC(=O)[C@H](CO)NC(=O)[C@H](CC(C)C)NC(=O)[C@H](CCCNC(=N)N)NC(=O)[C@@H](N)CCCNC(=N)N)C(N)=O)[C@@H](C)O)[C@@H](C)CC)C(C)C | HPAEC | ERK1/2 phosphorylation, inhibitor, Western blot | 0.5 h pre-incubation, serum-free medium, with: 1 ng/mL VEGF | 25.2
COc1c(O)cc2oc3cc(O)c(CC=C(C)C)c(O)c3c(=O)c2c1CC=C(C)C | SMMC-7721 | cell growth or viability | 48 h | 10.3
Oc1ccccc1C(N=Nc1ccccc1)=NNc1ccccn1 | MRC5 | cell growth or viability, resazurin | 72 h | < 30
CC/C(=C(\c1ccc(O)cc1)c1ccc(OCCN(C)CCOCCN(C)CCOc2ccc(/C(=C(/CC)c3ccccc3)c3ccc(O)cc3)cc2)cc1)c1ccccc1 | MCF7 (ER-positive) | cell growth | 96 h | 0.11
CCn1cc(/C=C/c2ccc3ccccc3[n+]2CC)c2ccccc21 | HTB26 | cell growth or viability, MTT | 24 h | 4.45
CN1CCCNC(=O)CC2(CCCCC2)CC(=O)NCCCN(C)CCCNc2cccc3c2C(=O)c2cccc(c2C3=O)NCCC1 | mouse bone marrow cells | cell proliferation, CCK-8 | 48 h | > 20
COc1ccc2cc3[n+](cc2c1OCc1cn(Cc2c(Cl)cc(Cl)cc2Cl)nn1)CCc1cc2c(cc1-3)OCO2 | SMMC-7721 | cell growth or viability, MTT |  | 18.7
Fc1ccc2[nH]c(-c3cc4cc5c(cc4nc3Cl)OCO5)nc2c1 | BEL-7404 | cell growth or viability, MTT | 48 h | > 100
Cc1ccc(-c2nc(-c3cccnc3)[nH]c2-c2ccc(C)cc2)cc1 | BT-474 | cell growth or viability, SRB | 48 h | 42.4
CC/C(=C(\c1ccc(O)cc1)c1ccc(OCCN(C)CCOCCOCCOCCOCCOCCOCCOCCN(C)CCOc2ccc(/C(=C(/CC)c3ccccc3)c3ccc(O)cc3)cc2)cc1)c1ccccc1 | MCF7 (ER-positive) | cell growth | 96 h | 0.1
CO[C@@H]1[C@@H](O[C@@H]2O[C@H](C)[C@@H](O[C@H]3C[C@@](C)(O)[C@@H](OC(=O)CN4CCOCC4)[C@H](C)O3)[C@H](N(C)C)[C@H]2O)[C@@H](CC=O)C[C@@H](C)[C@@H](O[C@H]2CC[C@H](N(C)C)[C@@H](C)O2)/C=C/C=C/C[C@@H](C)OC(=O)C[C@H]1O | GES1 | cell growth or viability, CCK-8 | 72 h | 9.56
C=C1C(=O)OC2C1CCC1(C)CC1CCC1(C)OC21 (centres unmarked) | GBM6 | cell growth or viability, resazurin |  | 2.3
N#Cc1cccc(-c2ccc(=O)n(Cc3cccc(-c4ncc(OCC5CCN(CCC(=O)Nc6cccc7c6C(=O)N(C6CCC(=O)NC6=O)C7=O)CC5)cn4)c3)n2)c1 (centres unmarked) | EBC-1 | cell growth or viability, CCK-8 | 72 h | 0.00703
COc1ccc2nc(Cl)c(-c3nc4cc(F)ccc4[nH]3)cc2c1 | BEL-7404 | cell growth or viability, MTT | 48 h | > 100
CO[C@@H]1[C@@H](O[C@@H]2O[C@H](C)[C@@H](O[C@H]3C[C@@](C)(O)[C@@H](OC(=O)NC4CCCCC4)[C@H](C)O3)[C@H](N(C)C)[C@H]2O)[C@@H](CC=O)C[C@@H](C)[C@@H](O[C@H]2CC[C@H](N(C)C)[C@@H](C)O2)/C=C/C=C/C[C@@H](C)OC(=O)C[C@H]1O | GES1 | cell growth or viability, CCK-8 | 72 h | > 50
CC(C)c1cccc(C(C)C)c1-n1c2c([n+](-c3c(C(C)C)cccc3C(C)C)[c]1[Cu-][Cl])-c1cccc3cccc-2c13 | NTERA2 | cell growth or viability, MTT | 72 h | 4
O=C(/C=C/c1ccc(O)cc1)OCCCC[P+](c1ccccc1)(c1ccccc1)c1ccccc1 | L02 | cell growth or viability, SRB | 48 h | 80.6
[Cl][Au-][c]1n(-c2c(C(c3ccccc3)c3ccccc3)cc(C(c3ccccc3)c3ccccc3)cc2C(c2ccccc2)c2ccccc2)c2c([n+]1-c1c(C(c3ccccc3)c3ccccc3)cc(C(c3ccccc3)c3ccccc3)cc1C(c1ccccc1)c1ccccc1)-c1cccc3cccc-2c13 | NTERA2 | cell growth or viability, MTT | 72 h | > 50
CC1=C2[O][Ru-]([Cl])[O+]=C2C=CN1CCCCCCN1C=CC2=[O+][Ru-]([Cl])[O]C2=C1C.Cc1ccc(C(C)C)cc1.Cc1ccc(C(C)C)cc1 | KYSE-70 | cell growth or viability, crystal violet | 96 h | > 20
O=C(CCCCCCNC(=O)c1cc(C(=O)c2ccccc2)cn1Cc1ccc(F)cc1)NO | human Epithelial cell | cell growth or viability |  | > 50
N=C(N)NCCC[C@@H](N)C(=O)N[C@@H](CC(=O)N[C@H](Cc1ccccc1)C(=O)N[C@H](CC(=O)O)C(N)=O)c1ccc2ccccc2c1 | BT-474 | cell growth or viability, ATP luminescence | 72 h | > 100
O=C1CCC(N2C(=O)c3cccc(NCC(=O)N4CCN(c5ccc(Nc6nc(Oc7ccccc7)c7occc7n6)cc5)CC4)c3C2=O)C(=O)N1 (centres unmarked) | MM1.S | cell growth or viability, resazurin | 5 days | 0.003
Cc1c(C)c(-c2ccc(-c3ccccc3)cc2)[c-](C)c1C.Cc1c(C)c(-c2ccc(-c3ccccc3)cc2)[c-](C)c1C.[Cl-].[Cl-].[Cl-].[Cl-].[Ir+3].[Ir+3] (centres unmarked) | HeLa human cancer cells | cell growth, MTT | 24 h | > 50
N#Cc1cccc(-c2ccc(=O)n(Cc3cccc(-c4ncc(OCC5CCN(CC(=O)N6CCN(CCNc7ccc8c(c7)C(=O)N(C7CCC(=O)NC7=O)C8=O)CC6)CC5)cn4)c3)n2)c1 (centres unmarked) | EBC-1 | cell growth or viability, CCK-8 | 72 h | 0.00244
C1=[N+]2CCCC[N+]3=Cc4ccc5[n]4[Au-]23[n]2c1ccc2-c1nc2ccccc2nc1-5.F[P-](F)(F)(F)(F)F | melanoma cancer cell lines |  | NCI60 panel mean | 27

SMILES | cell line | test | conditions | IC50 [µM]
COc1c(O)cc2oc3cc4c(c(O)c3c(=O)c2c1CCC(C)C)CC(O)O4 (centres unmarked) | SMMC-7721 | cell growth or viability | 48 h | 6.92
O=C(/C=C/c1ccc(-c2ccccc2)cc1)N[C@@H]1O[C@H](CO)[C@@H](O)[C@H](O)[C@H]1O | human T-lymphocyte | cell growth or viability | 72 h | 192
C=CC12COC(=O)C(=C)C1C1OC(=O)C(C)C1C(OC(=O)C(=C)CO)C2 (centres unmarked) | JIMT-1 | cell growth or viability, MTT | 72 h | 2.2
CCCCCCCCCCCCCCCC(=O)O[C@H]1[C@H](C)O[C@@H](O[C@H]2[C@H](N(C)C)[C@@H](O)[C@H](O[C@H]3[C@@H](CC=O)C[C@@H](C)[C@@H](O[C@H]4CC[C@H](N(C)C)[C@@H](C)O4)/C=C/C=C/C[C@@H](C)OC(=O)C[C@@H](O)[C@@H]3OC)O[C@@H]2C)C[C@@]1(C)O | GES1 | cell growth or viability, CCK-8 | 72 h | 10.8
CN1CCN(C(=O)c2cccc(-c3ccc4[nH]c5ncc(/C=C/c6ccccc6)cc5c4c3)c2)CC1 | Ba/F3 NPM-ALK | cell proliferation, [3H]-thymidine incorporation |  | 2.2
C=CC(=O)Nc1ccc(F)c(-c2ncnc3[nH]cc(C(=O)OCC)c23)c1 | mouse naive CD4 T cells | IL-2 production | with: TCR stimulation | > 1.1
COc1ccc2nc(Cl)c(-c3nc4cc(Cl)c(Cl)cc4[nH]3)cc2c1 | BEL-7404 | cell growth or viability, MTT | 48 h | 21.1
N=C(N)NCCC[C@@H](N)C(=O)N[C@@H](CC(=O)N[C@H](Cc1ccccc1)C(=O)N[C@H](CC(=O)O)C(=O)O)c1ccc2ccccc2c1 | BT-474 | cell growth or viability, ATP luminescence | 72 h | > 100
COc1ccc2cc3[n+](cc2c1OCc1cn(Cc2ccc(C#N)cc2)nn1)CCc1cc2c(cc1-3)OCO2 | SMMC-7721 | cell growth or viability, MTT |  | 57.3
Cc1cc(C)c([N+]#[C][Pd-2]([Cl])([Cl])[C]#[N+]c2c(C)cc(C)cc2C)c(C)c1 | MRC5 | cell growth or viability |  | > 100
COC(=O)C[C@H]1Oc2ccccc2C(=O)[C@]1(C)[N+](=O)[O-] | human Fibroblast | cell growth or viability, SRB | 96 h | > 100
CO[C@@H]1[C@@H](O[C@@H]2O[C@H](C)[C@@H](O[C@H]3C[C@@](C)(O)[C@@H](OC(=O)Nc4ccc(C)cc4)[C@H](C)O3)[C@H](N(C)C)[C@H]2O)[C@@H](CC=O)C[C@@H](C)[C@@H](O[C@H]2CC[C@H](N(C)C)[C@@H](C)O2)/C=C/C=C/C[C@@H](C)OC(=O)C[C@H]1O | GES1 | cell growth or viability, CCK-8 | 72 h | 41.7
Cc1ccc2nc(Cl)c(-c3nc4cc(F)ccc4[nH]3)cc2c1 | L02 | cell growth or viability, MTT | 48 h | > 100
CC(C)c1ccc(C[C@H](C)C(=O)N[C@@H]2O[C@H](CO)[C@@H](O)[C@H](O)[C@H]2O)cc1 | human T-lymphocyte | cell growth or viability | 72 h | > 250
COc1ccc2cc3[n+](cc2c1OCc1cn(Cc2ccc([N+](=O)[O-])cc2)nn1)CCc1cc2c(cc1-3)OCO2 | SMMC-7721 | cell growth or viability, MTT |  | 63.8
CC1(C)CCC(CN2CCN(c3ccc(C(=O)NS(=O)(=O)c4ccc(NCC5COCCO5)c([N+](=O)[O-])c4)c(N4CCCOc5nc6[nH]ccc6cc54)c3)CC2)=C(c2ccc(Cl)cc2)C1 (centres unmarked) | primary human CLL cells | apoptosis | NK Tert stroma co-culture | 7.5e-05
Cc1ccc2nc(Cl)c(-c3nc4cc(C)c(C)cc4[nH]3)cc2c1 | BEL-7404 | cell growth or viability, MTT | 48 h | > 100
CC(C)c1cccc(C(C)C)c1[N+]#[C][Pd-2]([Cl])([Cl])[C]#[N+]c1c(C(C)C)cccc1C(C)C | MRC5 | cell growth or viability |  | > 100
Oc1ccc(C(=NNc2ccccc2)c2ccc(O)cc2)cc1 | NCI-H441 | cell growth or viability, ATP luminescence | 72 h | 30.9
COC(=O)[C@@H](Cc1cn(Cc2ccc(Cl)cc2)nn1)NC(=O)OCC1c2ccccc2-c2ccccc21 | BXPC-3 | cell growth or viability, MTS | 72 h | 1.35
c1ccc(-c2nc(-c3cccnc3)[nH]c2-c2ccccc2)cc1 | BT-474 | cell growth or viability, SRB | 24 h | 92.5
CC(C)(C(=O)O)C1(O)CCCCC1 | LS174 | cell growth or viability | 72 h | > 200
CN1CCN(Cc2cccc(-c3ccc4[nH]c5ncc(/C=C/c6ccccc6)cc5c4c3)c2)CC1 | Ba/F3 NPM-ALK | cell proliferation, [3H]-thymidine incorporation |  | 2.2
CCCCn1c(-c2cccnc2)nc(-c2ccc(C)cc2)c1-c1ccc(C)cc1 | BT-474 | cell growth or viability, SRB | 48 h | 40.5
CCCC(CCC)C(=O)[O][Pt]([Cl])([Cl])[O]C(=O)C(CCC)CCC.N.N | five cancer cell lines | cytotoxicity | mean over panel | 1.4

Some of these lines once more:
SMILES | cell line | test | conditions | IC50 [µM]
CO[C@@H]1[C@@H](O[C@@H]2O[C@H](C)[C@@H](O[C@H]3C[C@@](C)(O)[C@@H](OC(=O)Nc4ccc(C)cc4)[C@H](C)O3)[C@H](N(C)C)[C@H]2O)[C@@H](CC=O)C[C@@H](C)[C@@H](O[C@H]2CC[C@H](N(C)C)[C@@H](C)O2)/C=C/C=C/C[C@@H](C)OC(=O)C[C@H]1O | GES1 | cell growth or viability, CCK-8 | 72 h | 41.7
Cc1ccc(-c2nc(-c3cccnc3)[nH]c2-c2ccc(C)cc2)cc1 | BT-474 | cell growth or viability, SRB | 48 h | 42.4
Cc1ccc2nc(Cl)c(-c3nc4cc(F)ccc4[nH]3)cc2c1 | L02 | cell growth or viability, MTT | 48 h | > 100
O=C1CCC(N2C(=O)c3cccc(NCC(=O)N4CCN(c5ccc(Nc6nc(Oc7ccccc7)c7occc7n6)cc5)CC4)c3C2=O)C(=O)N1 (centres unmarked) | MM1.S | cell growth or viability, resazurin | 5 days | 0.003
C1=[N+]2CCCC[N+]3=Cc4ccc5[n]4[Au-]23[n]2c1ccc2-c1nc2ccccc2nc1-5.F[P-](F)(F)(F)(F)F | melanoma cancer cell lines |  | NCI60 panel mean | 27
